Results of several laboratories.
Each line is one published result; not all experiments were run side by side.

Compound | system | setting | Cmax
Cc1ccccc1C(=O)NN=Cc1ccc(O)c(Br)c1 | C3H/HeN mouse IN model, plasma | intraperitoneal, 1.6 mg/kg | 375 ng/mL
NC(=O)c1cccc(-c2cc(OC(=O)NC3CCCCC3)ccc2O)c1 | mouse, plasma | oral, 10 mg/kg | 123 ng/mL
O=C1c2c(O)c(=O)ccn2N([C@@H]2c3ccccc3SCc3c2ccc(F)c3F)[C@@H]2COCCN12 | BALB/c mouse | subcutaneous, 4 mg/kg q12h | 192 ng/mL
N#Cc1c(Oc2cccc(OS(=O)(=O)CCCC(F)(F)F)c2)cccc1C(F)(F)F | mouse, brain | oral, 5 mg/kg, 1 h post-dose | 360 ng/g
N#C[C@@]1(n2ccc(N)nc2=O)O[C@H](CO)[C@@H](O)[C@H]1O | CD-1 mouse, plasma | intravenous, 15 mg/kg, mean | 13800 ng/mL
Cc1ccc(F)c2cc(C(=O)N[C@@H]3CCC[C@H](N4CC[C@H](N(C)S(C)(=O)=O)C4)C3)[nH]c12 | CD1 mouse | oral, 100 mg/kg | 3990 ng/mL
O=c1c2cc(Cl)c(CO)cc2[nH]c(=S)n1Cc1cncnc1 | mouse, plasma | oral, 50 mg/kg | 142 ng/mL
OB(O)CSc1nc2ccccc2n1Cc1ccc(C(F)(F)F)cc1C(F)(F)F | mouse, thigh | subcutaneous, 25 mg/kg | 28000 ng/g
Nc1ccc2cc3ccc(N)cc3nc2c1 | male CD-1 mouse, lung | oral, 100 mg/kg as hydrochloride | 14100 ng/mL

Repeated from above:
Compound | system | setting | Cmax
OB(O)CSc1nc2ccccc2n1Cc1ccc(C(F)(F)F)cc1C(F)(F)F | mouse, thigh | subcutaneous, 25 mg/kg | 28000 ng/g
